# Measurements of several laboratories.
# Each line is one published result; not all experiments were run side by side.
# Chain of UniProt O95819 (whole entry, looked up): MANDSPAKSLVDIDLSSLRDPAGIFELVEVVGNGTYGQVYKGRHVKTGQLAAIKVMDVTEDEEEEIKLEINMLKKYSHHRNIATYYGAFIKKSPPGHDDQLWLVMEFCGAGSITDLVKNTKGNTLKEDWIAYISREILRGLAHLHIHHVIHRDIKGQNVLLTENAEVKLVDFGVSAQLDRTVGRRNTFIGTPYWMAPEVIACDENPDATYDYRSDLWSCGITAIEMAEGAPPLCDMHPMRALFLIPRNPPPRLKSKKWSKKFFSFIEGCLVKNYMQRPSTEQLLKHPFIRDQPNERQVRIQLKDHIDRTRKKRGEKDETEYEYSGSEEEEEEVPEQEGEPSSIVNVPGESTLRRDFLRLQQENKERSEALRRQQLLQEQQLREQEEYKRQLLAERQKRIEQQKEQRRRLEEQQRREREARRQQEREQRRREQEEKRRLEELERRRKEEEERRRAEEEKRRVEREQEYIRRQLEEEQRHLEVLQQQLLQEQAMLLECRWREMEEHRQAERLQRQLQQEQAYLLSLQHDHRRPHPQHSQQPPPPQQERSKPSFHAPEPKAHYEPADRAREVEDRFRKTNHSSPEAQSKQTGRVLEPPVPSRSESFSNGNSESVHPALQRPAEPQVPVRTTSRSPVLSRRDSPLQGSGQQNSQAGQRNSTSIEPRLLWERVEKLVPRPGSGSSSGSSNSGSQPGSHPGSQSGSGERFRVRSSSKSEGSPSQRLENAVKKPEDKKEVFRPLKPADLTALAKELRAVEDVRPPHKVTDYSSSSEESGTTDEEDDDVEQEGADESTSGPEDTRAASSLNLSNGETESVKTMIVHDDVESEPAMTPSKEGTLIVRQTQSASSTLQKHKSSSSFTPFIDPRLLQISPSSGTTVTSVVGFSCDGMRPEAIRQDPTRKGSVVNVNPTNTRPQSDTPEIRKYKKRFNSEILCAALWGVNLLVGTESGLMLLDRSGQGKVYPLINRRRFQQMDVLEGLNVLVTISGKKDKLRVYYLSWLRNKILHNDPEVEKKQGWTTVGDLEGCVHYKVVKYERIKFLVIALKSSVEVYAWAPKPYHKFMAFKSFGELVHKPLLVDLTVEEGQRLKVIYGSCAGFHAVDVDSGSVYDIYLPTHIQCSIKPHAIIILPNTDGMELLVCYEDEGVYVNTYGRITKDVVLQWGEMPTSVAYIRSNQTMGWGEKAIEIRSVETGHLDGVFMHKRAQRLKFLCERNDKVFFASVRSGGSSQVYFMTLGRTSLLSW
Structure (SMILES),target or system,assay,test system,setting,quantity,result
CN(C)C(=O)c1cc2cnc(Nc3ccc(-c4ccc5c(=O)cc(N6CCOCC6)oc5c4)cc3)nc2n1C1CCCC1,,,"BALB/c mouse, plasma","oral, 20 mg/kg",AUC(0-t),2880 ng·h/mL
CC[C@H](C)[C@@H]1NC(=O)[C@@](C)(NC(=O)[C@H](CCCNC(=N)N)NC(=O)[C@H](CC(C)C)NC(=O)[C@@H](NC(=O)[C@H](CCC(N)=O)NC(=O)[C@H](CC(C)C)NC(C)=O)[C@@H](C)O)CCCC=CCCC[C@@](C)(C(=O)N[C@@H](CC(C)C)C(=O)N[C@@H](Cc2ccc3ccccc3c2)C(N)=O)NC(=O)[C@H](CCCNC(=N)N)NC(=O)[C@H](CCC(N)=O)NC1=O,,,"male BALB/c mouse, plasma","intravenous, 10 mg/kg",AUC,143 µM·h
Cl.N=C(CC(O)c1cc2c(F)cc(F)cc2c2cc(C(F)(F)F)ccc12)Nc1ccc(Br)cc1 (stereo not drawn),,,"mouse, blood","oral, 50 mg/kg, infected",AUC(0-t),93.9 µM·h
Nc1ncn([C@H]2C[C@H](O)[C@@H](CO)O2)c(=O)n1,,,"female C57BL/6 mouse, plasma","intravenous, 0.4 mg/kg",AUC(0-inf),185 ng·h/mL
CCN1CCN(Cc2ccc(NC(=O)c3ccc(C)c(NC(=O)c4cncc(-c5cccs5)c4)c3)cc2C(F)(F)F)CC1,,,"mouse, plasma","intraperitoneal, 30 mg/kg, single dose",AUC(0-t),2740 ng·h/mL
CNc1ncc2c(/C=C/C(=O)N3CCC(OC)CC3)nn(Cc3cccc(C(F)(F)F)c3)c2n1,"MAP4K4 (Homo sapiens, UniProt O95819)","enzyme activity, inhibitor, radiometric",,1 µM,remaining activity,86%
COc1cccc2c1C(=O)c1c(O)c3c(c(O)c1C2=O)C[C@@](O)(C(=O)CO)C[C@@H]3O[C@H]1C[C@H](N)[C@H](O)[C@H](C)O1,,,"mouse, plasma","intravenous, 13.3 mg/kg",AUC,4.13 µM·h
Cc1cc2sc(N)nc2c2cccnc12,,,"female BALB/c mouse, plasma","intraperitoneal, 30 mg/kg, single dose",AUC,45500 ng·h/mL
CC/C(=C(\c1ccc(O)cc1)c1ccc(OCCNC)cc1)c1ccccc1,,,"female C57BL/6 mouse, plasma","oral, 1 mg/kg, single dose",AUC,31.8 ng·h/mL

# A few entries again:
Structure (SMILES),target or system,assay,test system,setting,quantity,result
CC/C(=C(\c1ccc(O)cc1)c1ccc(OCCNC)cc1)c1ccccc1,,,"female C57BL/6 mouse, plasma","oral, 1 mg/kg, single dose",AUC,31.8 ng·h/mL
